Experimental data from different studies.
Lines come from different studies, so protocols differ. ± marks the error that the study gave.

Compound | target or system | assay | test system | setting | how to read | endpoint | value
C=C(NC(=O)c1csc(-c2nc3c(cc2O)-c2nc(cs2)C(=O)NC(C(C)O)C(=O)NC(=C(C)OC)c2nc(cs2)C(=O)NC2c4nc(cs4)C(=O)NC(COC(=O)c4c5c6c(cccc6n4O)COC(=O)C(OC4CC(C)(O)C(N(C)C)C(C)O4)C2OC5)c2nc-3cs2)n1)C(N)=O (centres unmarked) | Streptococcus pneumoniae | – | -25, immunocompromised mice, lung infection | 16 mg/kg/day, twice daily, 24 h post-dose | – | lung bacterial load | 6.14 log CFU/g
Nc1ncc(-c2cc(-c3cnn(CC(F)(F)F)c3)ncc2F)nc1C(=O)NC1CNCC(F)C1 (centres unmarked) | WNK4 | KINOMEscan | – | 1 µM | baseline: DMSO control | remaining binding | 100%
CCN(CC)CC(=O)Nc1cccc(-n2cc(-c3ccc4ccc(-c5cn(-c6cccc(NC(=O)CN(CC)CC)c6)nn5)cc4c3)nn2)c1 | RCC4 | PCR angiogenesis array, refers to: TIMP3 | – | 5 x IC50, 6 h, normoxia | baseline: untreated | fold regulation | 1.41 fold
CNS(=O)(=O)Nc1nccc(Cc2c(C)c3ccc(Oc4ncccc4F)cc3oc2=O)c1F | CAKI-2 | cell viability | – | 7 days | – | IC50 | > 1000 nM
Cc1c(C)c2cccnc2c2ncccc12.O=[N+]([O-])[O-].O=c1c(C=NN=C([S-])Nc2ccccc2)coc2ccccc12.[Cu+2] | supercoiled pUC19 DNA | oxidative DNA cleavage | – | concentration not given, catalase 0.1 U, together with: ascorbic acid | – | supercoiled DNA remaining | 86%
O=S(=O)(NCc1ccncc1)c1ccc(C2CCCCC2)cc1 | – | bulk RNA sequencing | CK-p25 mice, female, microglia | intraperitoneal, 0.3 mg/kg daily for 2 weeks, 336 h | – | upregulated genes number | 295 genes
CN1CCCNC(=O)c2cccc(c2)C(=O)NCCCN(C)CCCNc2cccc3c2C(=O)c2cccc(c2C3=O)NCCC1 | SAS | RNA-Seq, refers to: PEX12 mRNA | – | 1 µM, 6 h | baseline: untreated cells | log2 fold change | 1.42
COc1cc(-c2cc3c(N4CCC[C@H](C(=O)NCc5ccc(OC(F)(F)F)cc5)C4)ncnc3[nH]2)cc(OC)c1OC | NCI-H2228 | cell growth or viability, MTT | – | 0.04 µg/mL, 72 h | – | inhibition | 33.8%
Cc1ncsc1-c1ccc(C(C)NC(=O)C2CC(O)CN2C(=O)C(NC(=O)CCCCCCCCCCN2CCCC(Nc3ncc(Cl)c(Nc4ccccc4S(=O)(=O)C(C)C)n3)C2)C(C)(C)C)cc1 (centres unmarked) | 22Rv1 | RNA-seq, refers to: TWIST1 mRNA | – | concentration not given | baseline: DMSO | log2 fold change | -1.76
COC1CN([C@H]2CC[C@H]([C@@]3(C)Oc4c(Cl)cc(C(=O)NCc5c(SC)cc(C)[nH]c5=O)c(C)c4O3)CC2)C1 | – | RNA-seq, refers to: MAPRE3 mouse homolog | mouse, HT-1376 xenograft, whole blood | dose not given | baseline: vehicle | log2 fold change | 4.09
Nc1nc(-c2ccc(OC(F)(F)F)cc2)nc2[nH]nc(Nc3ccccc3)c12 | rhinovirus B42 | viral cytopathic effect | HeLa | – | – | IC50 | 2400 nM
CC(C)c1ccc(N(C)c2ccc3c(c2)OCC[C@H]3CNc2cnccc2C(=O)O)cc1 | NCI-H82 | cell growth or viability, ATP luminescence | – | 7 days | – | IC50 | 3.54 nM
CC(=O)[O-].O.[Cu+2].[O-]c1ccc(Br)cc1C=NCCN1CCOCC1 | – | DPPH radical scavenging | – | 40 µM | – | inhibition | 18.5%
COc1ccc(NC(=O)C2CCCN(c3ncnc4[nH]c(-c5ccc(NC6CCN(C)CC6)cc5C)cc34)C2)cc1 (centres unmarked) | NCI-H2228 | cell growth or viability, MTT | – | 0.2 µg/mL, 72 h | – | inhibition | 71%
C=CC(=O)N1[C@@H](c2ccc3c(c2)OCO3)c2[nH]c3ccccc3c2C[C@H]1C(=O)N1CCN(C)CC1 | human cyclin E1 wild type-3xFLAG:CDK2 | co-IP with TMT proteomics, refers to: CDK2 | – | concentration not given, P24941 | baseline: wild type DMSO | relative co-enrichment | 99%
COc1cc(O)ccc1CCC(c1ccc(O)cc1)c1cc2c(c(C)c1O)OC(c1ccc(O)cc1)CC2 (mixture of isomers) | – | – | human blood | 30 µM, together with: A23187 | – | 4-HDHA level | 93 ± 48 pg/mL
CC(C)(C)NCC(SS(=O)(=O)O)c1ccccc1 (centres unmarked) | Schistosoma mansoni | – | infected mice | 100 mg/kg single, day 42, perfusion day 56 | baseline: vehicle | male worm burden reduction | 51%
O=C(NCc1ccc(OC(F)(F)F)cc1)[C@H]1CCCN(c2ncnc3[nH]c(-c4ccc(N5CCOCC5)cc4)cc23)C1 | NCI-H2228 | cell growth or viability, MTT | – | 0.2 µg/mL, 72 h | – | inhibition | 66.3%
CN1CCC[C@]1(C)/C=C/S(=O)(=O)NC(=O)Nc1c2c(cc3c1CCC3)CCC2 | – | – | human, whole blood ex vivo | 400 mg single dose, 3 h, single ascending dose, together with: LPS and ATP | – | IL-1β inhibition | 99.5%
O=C(NCc1ccc(OC(F)(F)F)cc1)[C@H]1CCCN(c2ncnc3[nH]c(-c4cc(F)c(F)c(F)c4)cc23)C1 | NCI-H2228 | cell growth or viability, MTT | – | 0.2 µg/mL, 72 h | – | inhibition | 11.9%
COc1ccc(C(=O)CCc2cc(C(CCc3ccc(O)cc3OC)c3ccc(O)cc3)c(O)cc2OC)cc1 (racemic) | – | – | human blood | 30 µM, together with: A23187 | – | PGD2 level | 4 ± 4 pg/mL
Cc1nn(C)cc1-c1cc2c(N3CCC[C@H](C(=O)NCc4ccc(OC(F)(F)F)cc4)C3)ncnc2[nH]1 | NCI-H2228 | cell growth or viability, MTT | – | 0.008 µg/mL, 72 h | – | inhibition | 30.3%
C=CC(=O)Nc1cccc(Cn2ncc3cnc(Nc4cnn(CCOC)c4)nc32)c1 | IGF1R human | binding, KINOMEscan | – | 100 nM | lower = stronger binding | percent of control | 98%

Some of these lines once more:
Compound | target or system | assay | test system | setting | how to read | endpoint | value
Nc1nc(-c2ccc(OC(F)(F)F)cc2)nc2[nH]nc(Nc3ccccc3)c12 | rhinovirus B42 | viral cytopathic effect | HeLa | – | – | IC50 | 2400 nM
Nc1ncc(-c2cc(-c3cnn(CC(F)(F)F)c3)ncc2F)nc1C(=O)NC1CNCC(F)C1 (centres unmarked) | WNK4 | KINOMEscan | – | 1 µM | baseline: DMSO control | remaining binding | 100%
O=C(NCc1ccc(OC(F)(F)F)cc1)[C@H]1CCCN(c2ncnc3[nH]c(-c4cc(F)c(F)c(F)c4)cc23)C1 | NCI-H2228 | cell growth or viability, MTT | – | 0.2 µg/mL, 72 h | – | inhibition | 11.9%
